{"data": "Measured values pooled from the literature", "T1": "PDHA1/PDHB 30-390 E229Q on β (Homo sapiens); chain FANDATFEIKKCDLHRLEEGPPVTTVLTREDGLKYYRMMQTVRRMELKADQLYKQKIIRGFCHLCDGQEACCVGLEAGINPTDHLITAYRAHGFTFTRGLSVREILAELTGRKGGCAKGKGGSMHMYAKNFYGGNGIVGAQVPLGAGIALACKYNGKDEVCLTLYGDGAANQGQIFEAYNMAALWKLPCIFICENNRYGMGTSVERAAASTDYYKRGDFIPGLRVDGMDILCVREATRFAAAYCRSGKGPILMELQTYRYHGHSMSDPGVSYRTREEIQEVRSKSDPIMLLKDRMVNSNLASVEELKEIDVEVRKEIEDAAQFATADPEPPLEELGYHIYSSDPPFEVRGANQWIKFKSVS; chain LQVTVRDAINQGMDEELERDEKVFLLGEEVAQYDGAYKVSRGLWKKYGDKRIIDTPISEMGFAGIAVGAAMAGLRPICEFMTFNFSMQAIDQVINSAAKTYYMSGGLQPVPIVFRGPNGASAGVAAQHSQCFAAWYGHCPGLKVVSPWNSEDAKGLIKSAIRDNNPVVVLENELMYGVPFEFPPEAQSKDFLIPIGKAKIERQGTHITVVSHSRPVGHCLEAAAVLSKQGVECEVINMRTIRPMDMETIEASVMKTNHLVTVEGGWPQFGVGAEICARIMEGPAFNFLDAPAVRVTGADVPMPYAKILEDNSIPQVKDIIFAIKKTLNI", "B1": "mel-26 (Caenorhabditis elegans, UniProt Q94420); sequence looked up; chain MEPRIDGGVFIGGIGNSGNEMCSNGVPALGVSSQTEIKVEKVQHTWTVKNFSHCYQEYLENFVYLQRGDEQLTWSIKIYPKGNGENNKDFVFLCLNRVINNNVKAGKIGFKSQFKLRTAENKDIEMRIHPNPSHSDYVSYIKRDVLFPQIMPRDMIIVNVEIDVAVETITTTNEPIQFEPTNSEQQLIEDYQRLFSQELLCDFAINVNGKIIRAHKAVLAARSPVFNAMLTHQDTDEAKSSMMYINDMDYDVIYEMVYYIYCGRCNKDITDMATALLIAADKYRLEELKSHCEKYLVENINIENACSLLIIGDLYSAPKLRKRAVTYILARPKNVTGTPGWEDILKGHPNLITDIFSQIDRQSSTGATSSVSNLPGVPMDIPGITGNIVPPPSGL", "B2": "PDHB 31-359 (Homo sapiens, UniProt P11177); chain LQVTVRDAINQGMDEELERDEKVFLLGEEVAQYDGAYKVSRGLWKKYGDKRIIDTPISEMGFAGIAVGAAMAGLRPICEFMTFNFSMQAIDQVINSAAKTYYMSGGLQPVPIVFRGPNGASAGVAAQHSQCFAAWYGHCPGLKVVSPWNSEDAKGLIKSAIRDNNPVVVLENELMYGVPFEFPPEAQSKDFLIPIGKAKIERQGTHITVVSHSRPVGHCLEAAAVLSKEGVECEVINMRTIRPMDMETIEASVMKTNHLVTVEGGWPQFGVGAEICARIMEGPAFNFLDAPAVRVTGADVPMPYAKILEDNSIPQVKDIIFAIKKTLNI", "B3": "MPP6 (Saccharomyces cerevisiae, UniProt P53725); sequence looked up; chain MSANNGVTGKLSSRVMNMKFMKFGKTDDEESSNSNTPSNINSDVEPIEQKGKLFGLDDSAWDLNSYKDDLKKISGKEKKKVKRVVYKKRPNLIISNVGYSELRKPEGVISGRKTFGDNSDDSGSRKRKFDEGEQNEDEKRDAKDKEFTGSQDDGEDEYDLDKLFKDSIKKKKTNHNGKNKNRNSKK", "B4": "UGT1A9 (Homo sapiens, UniProt O60656); chain GKLLVVPMDGSHWFTMRSVVEKLILRGHEVVVVMPEVSWQLGRSLNCTVKTYSTSYTLEDLDREFKAFAHAQWKAQVRSIYSLLMGSYNDIFDLFFSNCRSLFKDKKLVEYLKESSFDAVFLDPFDNCGLIVAKYFSLPSVVFARGILCHYLEEGAQCPAPLSYVPRILLGFSDAMTFKERVRNHIMHLEEHLLCHRFFKNALEIASEILQTPVTEYDLYSHTSIWLLRTDFVLDYPKPVMPNMIFIGGINCHQGKPLPMEFEAYINASGEHGIVVFSLGSMVSEIPEKKAMAIADALGKIPQTVLWRYTGTRPSNLANNTILVKWLPQNDLLGHPMTRAFITHAGSHGVYESICNGVPMVMMPLFGDQMDNAKRMETKGAGVTLNVLEMTSEDLENALKAVINDKSYKENIMRLSSLHKDRPVEPLDLAVFWVEFVMRHKGAPHLRPAAHDLTWYQYHSLDVIGFLLAVVLTVAFITFKCCAYGYRKCLGKKGRVKKAHKSKTH", "B5": "DNAJB11 (Homo sapiens, UniProt Q9UBS4); chain GRDFYKILGVPRSASIKDIKKAYRKLALQLHPDRNPDDPQAQEKFQDLGAAYEVLSDSEKRKQYDTYGEEGLKDGHQSSHGDIFSHFFGDFGFMFGGTPRQQDRNIPRGSDIIVDLEVTLEEVYAGNFVEVVRNKPVARQAPGKRKCNCRQEMRTTQLGPGRFQMTQEVVCDECPNVKLVNEERTLEVEIEPGVRDGMEYPFIGEGEPHVDGEPGDLRFRIKVVKHPIFERRGDDLYTNVTISLVESLVGFEMDITHLDGHKVHISRDKITRPGAKLWKKGEGLPNFDNNNIKGSLIITFDVDFPKEQLTEEAREGIKQLLKQGSVQKVYNGLQGY", "B6": "CBL 25-351 (Homo sapiens, UniProt P22681); sequence looked up; chain LIGLMKDAFQPHHHHHHHLSPHPPGTVDKKMVEKCWKLMDKVVRLCQNPKLALKNSPPYILDLLPDTYQHLRTILSRYEGKMETLGENEYFRVFMENLMKKTKQTISLFKEGKERMYEENSQPRRNLTKLSLIFSHMLAELKGIFPSGLFQGDTFRITKADAAEFWRKAFGEKTIVPWKSFRQALHEVHPISSGLEAMALKSTIDLTCNDYISVFEFDIFTRLFQPWSSLLRNWNSLAVTHPGYMAFLTYDEVKARLQKFIHKPGSYIFRLSCTRLGQWAIGYVTADGNILQTIPHNKPLFQALIDGFREGFYLFPDGRNQNPDLTG", "B7": "ARRB1 1-382 K232Q/R236Q/K250Q (Homo sapiens, UniProt P49407); chain MGDKGTRVFKKASPNGKLTVYLGKRDFVDHIDLVDPVDGVVLVDPEYLKERRVYVTLTVAFRYGREDLDVLGLTFRKDLFVANVQSFPPAPEDKKPLTRLQERLIKKLGEHAYPFTFEIPPNLPSSVTLQPGPEDTGKALGVDYEVKAFVAENLEEKIHKRNSVRLVIRKVQYAPERPGPQPTAETTRQFLMSDKPLHLEASLDKEIYYHGEPISVNVHVTNNTNKTVKKIQISVQQYADIVLFNTAQYQVPVAMEEADDTVAPSSTFSKVYTLTPFLANNREKRGLALDGKLKHEDTNLASSTLLREGANREILGIIVSYKVKVKLVVSRGGLLGDLASSDVAVELPFTLMHPKPKEEPPHREVPENETPVDTNLIELDTN", "B8": "DLAT 214-416 (Homo sapiens, UniProt P10515); sequence looked up; chain SYPPHMQVLLPALSPTMTMGTVQRWEKKVGEKLSEGDLLAEIETDKATIGFEVQEEGYLAKILVPEGTRDVPLGTPLCIIVEKEADISAFADYRPTEVTDLKPQVPPPTPPPVAAVPPTPQPLAPTPSAPCPATPAGPKGRVFVSPLAKKLAVEKGIDLTQVKGTGPDGRITKKDIDSFVPSKVAPAPAAVVPPTGPGMAPVP", "note": "Lines come from different studies, so protocols differ.", "UniProt Q79PF4, sequence (whole entry, unmodified, looked up)": "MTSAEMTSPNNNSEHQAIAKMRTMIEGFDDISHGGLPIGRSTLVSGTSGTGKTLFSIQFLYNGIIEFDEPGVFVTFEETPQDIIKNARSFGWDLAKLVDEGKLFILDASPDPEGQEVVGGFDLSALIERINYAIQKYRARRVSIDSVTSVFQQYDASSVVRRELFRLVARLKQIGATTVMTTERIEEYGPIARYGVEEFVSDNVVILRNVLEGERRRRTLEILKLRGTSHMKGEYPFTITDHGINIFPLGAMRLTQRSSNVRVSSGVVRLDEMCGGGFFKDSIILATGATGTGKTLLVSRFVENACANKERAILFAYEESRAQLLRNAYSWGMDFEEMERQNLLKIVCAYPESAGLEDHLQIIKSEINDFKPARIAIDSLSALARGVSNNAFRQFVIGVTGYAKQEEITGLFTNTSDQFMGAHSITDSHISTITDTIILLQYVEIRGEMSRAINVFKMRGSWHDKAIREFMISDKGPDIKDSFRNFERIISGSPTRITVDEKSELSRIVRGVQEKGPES", "UniProt Q06904, sequence (whole entry, looked up)": "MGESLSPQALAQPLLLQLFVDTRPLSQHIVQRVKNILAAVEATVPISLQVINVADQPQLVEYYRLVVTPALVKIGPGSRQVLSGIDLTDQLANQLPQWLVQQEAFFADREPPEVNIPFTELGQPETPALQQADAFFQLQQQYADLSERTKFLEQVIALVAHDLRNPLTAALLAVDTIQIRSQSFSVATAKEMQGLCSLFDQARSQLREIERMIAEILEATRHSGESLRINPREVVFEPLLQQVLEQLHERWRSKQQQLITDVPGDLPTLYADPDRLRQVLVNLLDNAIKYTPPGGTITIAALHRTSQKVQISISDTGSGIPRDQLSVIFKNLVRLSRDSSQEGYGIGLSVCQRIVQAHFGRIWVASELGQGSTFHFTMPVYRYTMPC", "UniProt Q9YGC1, sequence (whole entry, looked up)": "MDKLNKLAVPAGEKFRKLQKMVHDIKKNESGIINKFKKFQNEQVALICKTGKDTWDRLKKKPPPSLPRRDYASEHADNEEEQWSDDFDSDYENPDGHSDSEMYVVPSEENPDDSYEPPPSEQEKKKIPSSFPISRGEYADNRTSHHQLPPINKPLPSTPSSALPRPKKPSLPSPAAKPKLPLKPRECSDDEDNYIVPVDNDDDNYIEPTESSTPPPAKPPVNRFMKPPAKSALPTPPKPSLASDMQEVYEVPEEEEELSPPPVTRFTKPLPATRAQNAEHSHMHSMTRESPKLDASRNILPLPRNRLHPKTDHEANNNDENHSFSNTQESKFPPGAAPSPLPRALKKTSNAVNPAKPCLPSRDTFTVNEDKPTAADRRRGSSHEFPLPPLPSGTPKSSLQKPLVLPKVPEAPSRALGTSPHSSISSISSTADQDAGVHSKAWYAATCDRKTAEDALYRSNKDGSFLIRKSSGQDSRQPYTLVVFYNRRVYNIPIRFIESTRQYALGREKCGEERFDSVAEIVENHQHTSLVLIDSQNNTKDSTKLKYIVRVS", "UniProt P30989, sequence (whole entry, looked up)": "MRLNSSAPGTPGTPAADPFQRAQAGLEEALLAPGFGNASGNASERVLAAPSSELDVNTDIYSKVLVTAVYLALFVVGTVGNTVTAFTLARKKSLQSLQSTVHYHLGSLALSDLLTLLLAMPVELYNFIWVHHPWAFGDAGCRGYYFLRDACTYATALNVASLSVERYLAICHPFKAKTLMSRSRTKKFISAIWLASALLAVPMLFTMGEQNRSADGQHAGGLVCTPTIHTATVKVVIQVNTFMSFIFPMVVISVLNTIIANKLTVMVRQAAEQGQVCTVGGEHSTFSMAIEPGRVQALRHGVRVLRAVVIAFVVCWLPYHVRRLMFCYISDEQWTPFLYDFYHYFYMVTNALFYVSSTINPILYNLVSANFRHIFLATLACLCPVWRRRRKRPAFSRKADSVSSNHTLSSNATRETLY", "UniProt P34808, sequence (whole entry, unmodified, looked up)": "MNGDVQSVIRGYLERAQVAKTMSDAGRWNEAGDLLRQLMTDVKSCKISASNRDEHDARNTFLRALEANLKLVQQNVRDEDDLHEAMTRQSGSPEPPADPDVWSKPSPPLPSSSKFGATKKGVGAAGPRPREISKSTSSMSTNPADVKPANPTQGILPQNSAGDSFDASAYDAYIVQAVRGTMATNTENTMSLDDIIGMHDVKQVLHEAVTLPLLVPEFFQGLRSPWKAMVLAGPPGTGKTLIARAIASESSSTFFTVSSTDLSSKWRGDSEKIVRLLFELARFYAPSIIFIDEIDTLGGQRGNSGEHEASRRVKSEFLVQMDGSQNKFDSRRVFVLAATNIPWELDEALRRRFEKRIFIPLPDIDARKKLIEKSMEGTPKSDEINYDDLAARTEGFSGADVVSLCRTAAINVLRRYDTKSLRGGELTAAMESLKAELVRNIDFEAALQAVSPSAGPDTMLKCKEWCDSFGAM"}
{"Substance": "kaiC (Synechococcus elongatus, UniProt Q79PF4)", "tested on": "kaiC S431D/T432E (Synechococcus elongatus, UniProt Q79PF4)", "assay": "pull-down", "endpoint": "binding", "value": "binds"}
{"Substance": "B1 (mel-26)", "tested on": "mei-1 S92D, phosphorylated by MBK-2 (Caenorhabditis elegans, UniProt P34808)", "assay": "far-Western", "conditions": "4 °C, denatured", "endpoint": "binding", "value": "binds"}
{"Substance": "B2 (PDHB 31-359)", "tested on": "PDHA1 E1p alpha subunit 30-390 S203A/S271A, pS264 (Homo sapiens, UniProt P08559)", "assay": "crystal structure", "conditions": "together with: Mn-ThDP, Mg-ThDP or apo", "endpoint": "binding", "value": "binds"}
{"Substance": "B3 (MPP6)", "tested on": "SKI6/RRP45/RRP42/MTR3/RRP46/RRP43/CSL4/RRP4/RRP40 Exo9 core (Saccharomyces cerevisiae)", "assay": "SEC", "endpoint": "binding", "value": "binds"}
{"Substance": "sasA (Synechococcus elongatus, UniProt Q06904)", "tested on": "kaiC (Synechococcus elongatus, UniProt Q79PF4)", "assay": "fluorescence polarisation", "conditions": "in vitro clock reaction, together with: KaiC", "endpoint": "binding", "value": "binds"}
{"Substance": "B4 (UGT1A9)", "tested on": "O=c1c(O)c(-c2ccc(O)cc2)oc2ccc(O)cc12", "assay": "steady-state kinetics", "conditions": "pH 7.4, 37 °C", "endpoint": "Vmax/Km", "value": "22000 µL/min/mg"}
{"Substance": "B5 (DNAJB11)", "tested on": "HSP90B1 K467A (Homo sapiens, UniProt P14625)", "assay": "pull-down", "endpoint": "binding", "value": "binds"}
{"Substance": "B6 (CBL 25-351)", "tested on": "BLNK, phosphotyrosine (Gallus gallus, UniProt Q9YGC1)", "assay": "pull-down", "test system": "DT40, lysate", "conditions": "together with: stimulation", "endpoint": "binding", "value": "binds"}
{"Substance": "B7 (ARRB1 1-382 K232Q/R236Q/K250Q)", "tested on": "NTSR1, GRK5-phosphorylated (Homo sapiens, UniProt P30989)", "assay": "SEC", "endpoint": "binding", "value": "binds"}
{"Substance": "B8 (DLAT 214-416)", "tested on": "T1, PDHA1/PDHB 30-390 E229Q on β (Homo sapiens)", "assay": "SPR", "endpoint": "binding", "value": "binds"}
{"note": "Repeated from above:"}
{"Substance": "B3 (MPP6)", "tested on": "SKI6/RRP45/RRP42/MTR3/RRP46/RRP43/CSL4/RRP4/RRP40 Exo9 core (Saccharomyces cerevisiae)", "assay": "SEC", "endpoint": "binding", "value": "binds"}
